Measured values pooled from the literature.
Every numbered part comes from another study and shows a few of its results, in no order. Positions count from the first letter of the parent shown.

Study 1 — method: RNA Bind-n-Seq; molecule type: RNA; matrix: in vitro; concentration: not given; reference: input RNA pool; reading: higher = stronger binding
Target: RING finger protein unkempt homolog, zinc fingers 1-6, GST-SBP tag (UNK, Homo sapiens, UniProt Q9C0B0, residues 30-357)
Setting: RNA with constant flanks, human-mouse chimeric sites, ends assumed
All sequences stand within: GGGAGUUCUACAGUCCGACGAUC … CAACAGAGGAUUGAGCAUCA
Target sequence (chain): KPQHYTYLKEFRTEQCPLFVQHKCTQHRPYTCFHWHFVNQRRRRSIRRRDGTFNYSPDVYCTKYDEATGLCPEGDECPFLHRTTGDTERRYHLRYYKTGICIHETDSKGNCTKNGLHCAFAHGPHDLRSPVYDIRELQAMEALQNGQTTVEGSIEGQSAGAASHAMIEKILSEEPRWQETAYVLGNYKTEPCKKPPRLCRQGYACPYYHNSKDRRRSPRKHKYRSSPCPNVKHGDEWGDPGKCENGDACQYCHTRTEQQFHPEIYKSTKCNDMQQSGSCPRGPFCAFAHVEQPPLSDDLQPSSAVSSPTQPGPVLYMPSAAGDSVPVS
Oligonucleotide | bound/input enrichment
ACCUCCCCCUCCCGCCUGCUUUUUGAACCGCUUUUUGGAAAGUUUUUGGCGUUUCUUUUCCUUCCCCAUACAAAGUGAUUACAGUUUCCCCCGCAAGUGGGGCUUGAAGGGCUUGACGGA | 0.58 ratio
GUUGCCAGCUUCCGGUUCCGUUGGGCUCGGUUCUCUCCUGAGCUACGUGUCUCUACGCUCUCAAUCCGCCAUCCAACAAACAUGGAUGAUCAGGUAAAGUUUGUGGAUGAGCCAAGUCAG | 0.0466 ratio
CAGUCCCGCGACAGCGUUGCAGGACGAUGUGAACAAAAACUCAAAGCGGACCCUCUAUUGUAGUUCUUGAUUCUCGAAAUGUGCUAUUAUUGUUUGUAAAAAAGGAAUUUUUUUUAAAGA | 0.244 ratio
UACUGCUGCUUUCAACUUAAAUCACUGAGGCAUCUCUACUGUUCUGUGAGCAUCAGGACUGUAGCGCUUGCCACCACCAUGAGAGUUCAGAAGCAGCCUUUCUGUGGAGGGUGGGAAUGA | 0.125 ratio
CUCGGCACUGGUACCCUUUACAUCGCGGAGAGCCGCCUGUCUUGGUUAGAUGGUUCGGGAUUAGGAUUCUCACUGGAAUACCCCACCAUUAGUUUACAUGCGGUGUCCAGGGAUCCAAAC | 0.726 ratio
GUUCGGCUUUGGGAUCAUGCUACUAUGACAGAAGUGAAAUCUCUGAAUUUUAAUAUGUCUGUUAGCAGCAUGGAGUAUAUUCCUGAAGGAGAGAUUUUGGUUAUUACUUAUGGACGAUCU | 0.186 ratio
CGGAAGUUCUUGAUUUAUCAUUUUUCUUGCUCGGGUUUUUCCUUUAGGAAAAGCCUAAAGAUUAGGUUGUAAGAAAAACAGAAGCCAUGUUUCGAAGACCUGUGUUACAGGUAUUUCGUC | 0.24 ratio
UCUUAACUUAUUCAUUUCUUAUUUUUAUAUAGCUAGAUAAAUAUUGUUAGUCUUAGAGAGUAGUUCACAUUUUUUGAGAAGCAUGCCCUCCCUGUCCAUUUGUCUUAUAACAUGACCCAG | 55.5 ratio
UUUGUAUUUAUGCUAAGCACACGUGCUGGUGGUCUGGGCAUCAAUCUUGCAACUGCUGAUGUAGUCAUUUUAUAUGACUCAGAUUGGAAUCCGCAAGUAGAUCUUCAGGCUAUGGACCGU | 0.112 ratio
AAGGUGAUGACUAUGUUUGUCCAACGACAGGUAUUUUCGGAGAGCAAAGAUGAGAUUGCUUUAGUCCUCUAUGGCACAGAUGGCACUGAUAAUGCCCUUGCUGGCAAGGACCAGUAUCAG | 0.205 ratio
UGUGAACUGUCUCUUGAGAUCUAAAAACAAGAUGACUUUUCCUGGCACAUAUUCCAAAGCAAAGACUUUGUUGCCUGCUGCUUCUUGUCUAAUUUACAGGGAUAUUUAAUUUUGUAAGGU | 0.147 ratio

Study 2 — method: protein binding microarray; molecule type: double-stranded DNA, one strand shown; matrix: in vitro; concentration: not given; reference: not given; reading: higher = stronger binding
Target: Histone acetyltransferase KAT6A, winged helix 2, GST fusion (KAT6A, Homo sapiens, UniProt Q92794, residues 85-181)
Setting: 8-mer, flanks averaged, mean of 2 arrays, mostly near background
Residues (chain): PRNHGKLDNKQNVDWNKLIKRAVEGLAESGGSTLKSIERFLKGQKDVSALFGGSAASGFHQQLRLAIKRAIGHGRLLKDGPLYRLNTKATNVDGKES
Oligonucleotide | E-score
GAGAGAAC | 0.0804
CCGTCACG | -0.179
GATGGAGC | 0.0793
GAATTTCC | -0.0809
GGACGTTA | -0.124
CCAGAGAC | 0.0122
AAGGGAGA | -0.0127
GGTGGACA | 0.0261
ATTAGGCG | 0.149
GGTCCACA | -0.173
CATTATGC | 0.0194
CAGGCTAG | -0.0938
TCCATTAA | 0.00722
GGTAGACA | -0.0762
GACTCTAC | -0.17
AAAGACAC | 0.12
GACGCTGA | -0.0512
ATGTTGGG | -0.0463

Study 3 — method: RNA Bind-n-Seq; molecule type: RNA; matrix: in vitro; concentration: 200 nM; setting: whole 134-nt RNA, ends assumed; added: 150 mM KCl; reference: input library; reading: higher = stronger binding
Target: Ras GTPase-activating protein-binding protein 1, full length (G3BP1, Homo sapiens, UniProt Q13283)
UniProt Q13283, sequence (whole entry, looked up): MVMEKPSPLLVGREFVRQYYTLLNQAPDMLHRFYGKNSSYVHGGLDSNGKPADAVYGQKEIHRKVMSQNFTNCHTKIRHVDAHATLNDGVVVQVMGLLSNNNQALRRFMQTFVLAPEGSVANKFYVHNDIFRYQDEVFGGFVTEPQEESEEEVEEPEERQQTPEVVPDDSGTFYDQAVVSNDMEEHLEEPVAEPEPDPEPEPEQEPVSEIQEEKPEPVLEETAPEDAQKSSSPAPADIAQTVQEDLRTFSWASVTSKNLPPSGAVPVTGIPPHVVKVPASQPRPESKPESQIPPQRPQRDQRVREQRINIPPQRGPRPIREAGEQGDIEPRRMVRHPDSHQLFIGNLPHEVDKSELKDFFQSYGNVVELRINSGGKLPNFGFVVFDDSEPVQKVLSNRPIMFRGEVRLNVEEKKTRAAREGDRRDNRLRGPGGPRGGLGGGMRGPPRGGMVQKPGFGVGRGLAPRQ
All sequences stand within: GGGAGUUCUACAGUCCGACGAUC … UGGAAUUCUCGGGUGUCAAGG
Oligonucleotide | log2 enrichment
UCCUGUGCUACACAUCGUAUGUACCGAAUCGGGUUUUUGGGGUUUUUGGGGUUUUUGGGAAAGUAUUAUGUUACGCCGUUCGGAUCUGCA | 0.144
CCUCAAGUCCUGUGCUACACAUCGUAUGUACCGAAUCGGGGAGGAGGAGGGGAAAGUAUUAUGUUACGCCGUUCGGAUCUGCACUUCCAG | 0.578
AAGUCCUGUGCUACACAUCGUAUGUACCGAAUCGGUUUGGAAAAAGGUUUUUUUGGAAAGUAUUAUGUUACGCCGUUCGGAUCUGCACUU | -1.39
UGGGAGGUGGAUUUUGCUUAUUUUUUUAGCUCAUUUCCAGGGGUGGGAAUUUUUUUUUAAUAUGUGUCAUGAAUAAAGUUGUUUUUGAAA | 0.198
UGGCCCUGGUGGCAUGCGGGGAGGAAGAGGUGGACUCAUGGAUCGUGGUGGUCCCGGUGGAAUGUUCAGAGGUGGCCGUGGUGGAGACAG | 0.387
CCUCAAGUCCUGUGCUACACAUCGUAUGUACCGAAUCGGCGGGGCGGGGCGGGAAAGUAUUAUGUUACGCCGUUCGGAUCUGCACUUCCA | 1.1
GUCCUGUGCUACACAUCGUAUGUACCGAAUCGGCCCCCGGGGCCCCCGGGGCCCCCGGAAAGUAUUAUGUUACGCCGUUCGGAUCUGCAC | -1.93
UGUGCUACACAUCGUAUGUACCGAAUCGGGGUUUUUUUGGGGUUUUUUUGGGUUUUUUUGGGAAAGUAUUAUGUUACGCCGUUCGGAUCU | -0.712
CUCAAGUCCUGUGCUACACAUCGUAUGUACCGAAUCGGGUGGGGUGGGGUGGGAAAGUAUUAUGUUACGCCGUUCGGAUCUGCACUUCCA | 1.16
CCUGUGCUACACAUCGUAUGUACCGAAUCAAACCCCCAAACCCCCCCAAAUUUUUUUAAAAAAGUAUUAUGUUACGCCGUUCGGAUCUGC | 0.000833
ACCAUGCAGGUGGGCAUCUUUGGGAAGUGGGGCAAGGGGGGGAGAGGGAGGGGGGUAACACUUUGGGAACAGGUGGUCCCAGGUCGUUUC | 1.1
CUGUGCUACACAUCGUAUGUACCGAAUCGGGGAAAAAAAGGGGUUUGGGGAAAAAAAGGGGAAAGUAUUAUGUUACGCCGUUCGGAUCUG | -0.272
CAAGUCCUGUGCUACACAUCGUAUGUACCGAAUCGGGGUGGGGUGGGGUUUGGGGAAAGUAUUAUGUUACGCCGUUCGGAUCUGCACUUC | 0.802
GUCCUGUGCUACACAUCGUAUGUACCGAAUCGGGAAAAAAAGGGUUUUUUUGGGAGGGAAAGUAUUAUGUUACGCCGUUCGGAUCUGCAC | -0.156

Study 4 — method: universal PBM; molecule type: double-stranded DNA, one strand shown; matrix: in vitro; concentration: 600 nM; reading: higher = stronger binding
Target: Sal-like protein 4, full length isoform A (SALL4, Homo sapiens, UniProt Q9UJQ4, residues 1-1053)
UniProt Q9UJQ4, sequence (whole entry, looked up): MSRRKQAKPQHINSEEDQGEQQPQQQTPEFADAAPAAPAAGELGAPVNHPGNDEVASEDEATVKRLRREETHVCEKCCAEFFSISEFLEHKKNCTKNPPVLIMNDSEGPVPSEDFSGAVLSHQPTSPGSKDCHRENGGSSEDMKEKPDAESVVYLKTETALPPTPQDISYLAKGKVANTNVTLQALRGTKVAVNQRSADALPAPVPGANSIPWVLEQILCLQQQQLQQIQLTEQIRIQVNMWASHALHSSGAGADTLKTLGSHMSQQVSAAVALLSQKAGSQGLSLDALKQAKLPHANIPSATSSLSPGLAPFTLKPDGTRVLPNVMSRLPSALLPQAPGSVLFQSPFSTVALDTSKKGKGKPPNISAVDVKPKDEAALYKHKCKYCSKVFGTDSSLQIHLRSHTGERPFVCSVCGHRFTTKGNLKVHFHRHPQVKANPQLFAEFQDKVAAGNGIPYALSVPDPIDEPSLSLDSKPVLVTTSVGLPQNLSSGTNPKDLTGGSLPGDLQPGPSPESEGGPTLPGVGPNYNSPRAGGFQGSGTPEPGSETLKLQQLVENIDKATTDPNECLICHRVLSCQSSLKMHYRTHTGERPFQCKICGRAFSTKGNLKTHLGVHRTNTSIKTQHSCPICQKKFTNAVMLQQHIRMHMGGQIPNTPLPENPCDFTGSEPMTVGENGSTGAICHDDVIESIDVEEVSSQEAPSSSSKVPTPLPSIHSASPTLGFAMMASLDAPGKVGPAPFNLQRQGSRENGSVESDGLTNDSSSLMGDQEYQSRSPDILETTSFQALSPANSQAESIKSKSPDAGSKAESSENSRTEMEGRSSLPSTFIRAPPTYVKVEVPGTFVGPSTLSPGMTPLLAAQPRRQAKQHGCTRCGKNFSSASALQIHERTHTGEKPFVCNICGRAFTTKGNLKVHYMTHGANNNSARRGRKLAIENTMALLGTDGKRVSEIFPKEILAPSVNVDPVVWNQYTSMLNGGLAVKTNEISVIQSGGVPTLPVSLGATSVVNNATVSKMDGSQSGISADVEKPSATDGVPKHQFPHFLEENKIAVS
Setting: 8-mer, flanks averaged, mean of replicates
Oligonucleotide | E-score
ACGAGAGA | 0.0631
GTCGGGCA | -0.244
ATAATTAG | 0.384
ACGGCCGA | -0.182
AGATGGAA | 0.0142
CGCAGTGA | -0.0669
GCCTCACA | 0.0352
CTACGTTA | 0.173
CTAAAGTC | 0.0611
GTGCGCAA | -0.156
ACTAAGAC | -0.018
TACGCGAA | 0.053
CGGAGGCC | -0.379
AAGGCGAC | -0.2
GCACATCA | -0.0247
TGGCCACA | -0.212
ATTCACTC | 0.125
CGCGGGTC | -0.311
ATACTAAC | 0.136
GAGCTCAA | -0.122
AGAACAAC | -0.0518
AGTACAAA | 0.144
AGTTTCTC | -0.0207
ACTGCGGA | -0.212
CGATGTCA | 0.00156

Study 5 — target: CCNA1, cyclin fold, Cln2 fusion (human); method: yeast growth competition, sequencing; matrix: yeast; setting: weak parent motif; reference: not given; reading: higher = stronger binding
Starting sequence: CDC25A docking peptide (human); PPHRRRLLFACSP; partner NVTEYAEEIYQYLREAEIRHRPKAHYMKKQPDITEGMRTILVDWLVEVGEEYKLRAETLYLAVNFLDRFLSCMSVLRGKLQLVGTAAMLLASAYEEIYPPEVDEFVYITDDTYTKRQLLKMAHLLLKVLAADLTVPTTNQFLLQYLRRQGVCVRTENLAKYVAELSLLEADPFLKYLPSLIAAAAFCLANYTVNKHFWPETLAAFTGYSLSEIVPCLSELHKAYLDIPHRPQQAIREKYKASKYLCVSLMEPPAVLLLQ
Change | normalised enrichment score
PPHWRRLLFACSP [R4W] | -0.0871
PIHRRRLLFACSP [P2I] | 0.241
PPHRRRLGFACSP [L8G] | 0.358
PPHRRRLLFACSW [P13W] | -0.084
PPHRRRLLFSCSP [A10S] | 0.171
PPHRRRLLFACRP [S12R] | 0.349
PPHRRRLLFHCSP [A10H] | 0.29
PPHRRDLLFACSP [R6D] | 0.132
PPHRRRLLLACSP [F9L] | 0.264
PPHRRRLTFACSP [L8T] | 0.441
PPHRRRLLFAKSP [C11K] | 0.0446
PPHRRMLLFACSP [R6M] | 0.367
PPDRRRLLFACSP [H3D] | 0.41
PPHRYRLLFACSP [R5Y] | 0.073
PPHRRRLLFAHSP [C11H] | 0.348
PPHRRRLLFASSP [C11S] | 0.283
PPHCRRLLFACSP [R4C] | 0.449
PPHRRRLLFACSI [P13I] | 0.265
PPHRRRLLFKCSP [A10K] | 0.316
PPHRRKLLFACSP [R6K] | 0.241
PPHRRRLLFACSA [P13A] | 0.32
CPHRRRLLFACSP [P1C] | -0.0239
PPHRRRLLFACSN [P13N] | 0.709
PPHRRRLLPACSP [F9P] | 0.0295
PPTRRRLLFACSP [H3T] | 0.477

For quick reference, copied from above (study 4):
Oligonucleotide | E-score
ATTCACTC | 0.125
AGAACAAC | -0.0518
ACTGCGGA | -0.212
CGATGTCA | 0.00156
ACGAGAGA | 0.0631
GCCTCACA | 0.0352
TACGCGAA | 0.053
